Results collected from several papers.
Every numbered part comes from another study and shows a few of its results, in no order.

Block 1
Target: Prothrombin, mature alpha-thrombin (F2, Homo sapiens, UniProt P00734)
Technique: aptamer microarray, sandwich
Form: DNA with 2'F-ANA
Medium: in vitro
Tested at: 200 nM
Notes: whole 15-mer aptamer, many near background
With: Cy3 exosite-II aptamer, 400 nM
Reading: higher = stronger binding
Strand: GGTTGGTGTGGTTGG
| Modification | mean fluorescence intensity [a.u.] |
| --- | --- |
| 2'F-ANA at 2 3 4 6 8 10 12 14 | 161 |
| 2'F-ANA at 1 3 4 5 6 7 8 12 13 14 15 | 52.4 |
| 2'F-ANA at 1 2 3 4 5 9 10 11 13 15 | 45.8 |
| 2'F-ANA at 1 3 4 5 7 10 13 15 | 49.3 |
| 2'F-ANA at 5 6 7 9 10 13 14 | 46.2 |
| 2'F-ANA at 1 2 3 5 7 8 9 10 12 15 | 50.8 |
| 2'F-ANA at 1 2 4 5 7 8 9 12 13 14 | 45.7 |
| 2'F-ANA at 2 3 6 7 8 9 10 12 13 14 15 | 255 |
| 2'F-ANA at 2 3 4 6 8 9 12 | 786 |
| 2'F-ANA at 2 4 8 10 11 13 14 15 | 58.2 |
| 2'F-ANA at 2 8 | 519 |
| 2'F-ANA at 2 6 7 9 11 13 14 15 | 140 |
| 2'F-ANA at 1 2 6 9 12 14 15 | 57.5 |
| 2'F-ANA at 5 7 8 9 14 15 | 48.4 |
| 2'F-ANA at 2 4 5 8 10 11 12 | 48.9 |
| 2'F-ANA at 2 3 4 6 8 10 12 13 | 210 |
| 2'F-ANA at 1 2 3 5 6 7 9 10 11 12 13 15 | 51.7 |
| 2'F-ANA at 2 3 5 8 9 10 11 14 | 119 |
| 2'F-ANA at 1 4 6 10 11 12 13 14 15 | 88.7 |
| 2'F-ANA at 4 6 8 | 387 |
| 2'F-ANA at 2 3 4 7 8 9 11 12 14 | 352 |
| 2'F-ANA at 2 8 12 15 | 815 |
| 2'F-ANA at 4 6 9 10 11 13 14 | 54.2 |
| 2'F-ANA at 1 3 8 9 10 11 14 15 | 58.8 |
| 2'F-ANA at 1 3 4 8 10 11 13 15 | 63.8 |

Block 2
Organism: Saccharomyces cerevisiae
Observed: pheromone growth arrest
Technique: yeast competitive growth sequencing
Form: peptide
Strain: no Cln2 overexpression
Notes: peptide tiling library
Reading: direction not given
| Molecule | enrichment score |
| --- | --- |
| KPHVSDEEEEEPPFYH | 0.273 |
| PAKRRLELGE | 0.408 |
| DTERAHSTLDEDLERW | 0.255 |
| IVLICAKRSLCAAFSV | -0.559 |
| PARRRLRLSVDEVSSP | 0.136 |
| KPKPVKPVTFSTGIKM | 0.523 |
| SAVPLILPQAPSGPSY | 0.131 |
| TARRIFQEPTEPKTKA | 0.0222 |
| VLVRTSACRSLFGPVD | -0.0972 |
| FQDSGYNELKSCSFDN | 0.229 |
| GLPDFVFQQQPVESEA | 0.342 |
| DGCSPIKNWSPMRL | 0.677 |

Block 3
Target: Interferon regulatory factor 5, full length, phosphomimetic (IRF5, Homo sapiens, UniProt Q13568-2, residues 1-514, K96S/S451D/S453D/S456D/S462D)
Technique: protein-binding microarray
Form: double-stranded DNA, one strand shown
Medium: in vitro
Tested at: 250 nM
Notes: 60-bp whole probe
With: salmon DNA 0.4 mg/ml
Relative to: random background probes
Reading: higher = stronger binding
Shared flanks, not repeated: GCCTAGCAC … GTCTTGATTCGCTTGACGCTGCTG
| Strand | log fluorescence [z-score] |
| --- | --- |
| TAAGGTCTCGGTATCGGTTAGTGCTAG | 5.48 |
| GACGGCATCCTACTGCTGACGTGCTAG | -0.319 |
| GACGGACTGGGTTTCGTGACGTGCTAG | 0.393 |
| GACGATATCGCGACTGGAGACGTGCTA | 0.163 |
| GACGGTGTCGGACTGGGGACGTGCTAG | -0.252 |
| GACGATTCCAGTTTCGAGAAGTGCTAG | 5.44 |
| GACGGTCTCGCTCTCGGGACGTGCTAG | -0.177 |
| TTTGATCTCAGTATCGATTAGTGCTAG | 7.05 |
| GACGAACTGAGACTGGAGAAGTGCTAG | -0.084 |
| CACGGTATCCTACTGCTGACGTGCTAG | -0.172 |
| GACGGTATCGGTCTCGGCACGTGCTAG | 4.99 |
| TCATAACTCATTTTCGTACTGTGCTAG | 2.31 |
| TATAGTTATTTTTATTAAAAGTGCTAG | 1.23 |
| GACGGTATCGGTTTCGGGGCGTGCTAG | 7.83 |
| GACGGTTGCCTTTTCCTGACGTGCTAG | 0.139 |
| GACGGTATCGGTCTCCGGACGTGCTAG | 5.54 |
| GACGATTTCAGTGTCGAGACGTGCTAG | 1.01 |
| TCAGGACTGGACACTGGGTTAGTGCTA | -0.497 |
| GACGATATCGGGTATCGAGGCGTGCTA | 2.19 |
| TTAGGTTTCGACATTGGGTTAGTGCTA | 6.67 |
| TTAGGTTTCGGGACTGGGTGAGTGCTA | 5.73 |

Block 4
Target: Ras GTPase-activating protein-binding protein 1, full length (G3BP1, Homo sapiens, UniProt Q13283)
Sequence of UniProt Q13283 (whole entry, looked up): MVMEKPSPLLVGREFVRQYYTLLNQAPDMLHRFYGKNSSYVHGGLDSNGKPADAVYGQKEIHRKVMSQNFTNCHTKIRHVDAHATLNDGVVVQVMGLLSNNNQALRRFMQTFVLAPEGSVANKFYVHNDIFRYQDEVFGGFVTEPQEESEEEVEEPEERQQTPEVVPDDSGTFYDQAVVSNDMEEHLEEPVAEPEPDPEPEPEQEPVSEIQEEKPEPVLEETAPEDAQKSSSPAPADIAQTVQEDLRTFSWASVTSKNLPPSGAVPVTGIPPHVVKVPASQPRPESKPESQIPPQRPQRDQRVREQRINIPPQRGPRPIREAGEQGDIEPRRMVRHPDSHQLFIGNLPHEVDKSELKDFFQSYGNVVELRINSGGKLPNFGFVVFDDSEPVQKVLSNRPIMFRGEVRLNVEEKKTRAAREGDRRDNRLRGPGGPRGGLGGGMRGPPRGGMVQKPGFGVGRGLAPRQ
Technique: RNA Bind-n-Seq
Form: RNA
Medium: in vitro
Tested at: 200 nM
Notes: whole 134-nt RNA, ends assumed
With: 150 mM KCl
Relative to: input library
Reading: higher = stronger binding
| Strand | log2 enrichment |
| --- | --- |
| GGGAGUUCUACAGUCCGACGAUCUAACUUUAGAGGAGGAUCUGAUGGAUAUGGCAGUGGACGUGGAUUUCGGGAUGGCUAUAAUGGGUAUGGAGGAGGACCUGGAGGUGGCAAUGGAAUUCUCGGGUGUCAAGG | 0.172 |
| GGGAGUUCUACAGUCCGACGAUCAGUCCUGUGCUACACAUCGUAUGUACCGAAUCGGCCCCCGGGCCCCCGGGGCCCCCGGAAAGUAUUAUGUUACGCCGUUCGGAUCUGCACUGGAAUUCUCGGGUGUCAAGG | -1.07 |
| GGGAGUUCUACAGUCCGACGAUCACCAUGCAGGUGGGCAUCUUUGGGAAGUGGGGCAAGGGGGGGAUAGGGAGGUGGGUAACACUUUGGGAACAGGUGGUCCCAGGUCGUUUCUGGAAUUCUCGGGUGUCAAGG | 1.23 |
| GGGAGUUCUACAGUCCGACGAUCCUCAAGUCCUGUGCUACACAUCGUAUGUACCGAAUCGGGCCGGCCGGGGCCGGGAAAGUAUUAUGUUACGCCGUUCGGAUCUGCACUUCCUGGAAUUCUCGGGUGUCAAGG | -0.451 |
| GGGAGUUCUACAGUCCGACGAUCCAAGUCCUGUGCUACACAUCGUAUGUACCGAAUCGGAAAGGGGAAAGGAAAGGGGAAAGUAUUAUGUUACGCCGUUCGGAUCUGCACUUCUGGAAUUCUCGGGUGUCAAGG | -0.0572 |
| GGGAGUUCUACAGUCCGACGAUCGUCCUGUGCUACACAUCGUAUGUACCGAAUCAAACCCCCAAACCCCCAAAUUUUUAAAAAAGUAUUAUGUUACGCCGUUCGGAUCUGCACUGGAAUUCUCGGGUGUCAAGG | -0.294 |
| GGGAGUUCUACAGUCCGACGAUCAGUCCUGUGCUACACAUCGUAUGUACCGAAUCGGUUUUUGGUUUUUGGUUUUUUUGGAAAGUAUUAUGUUACGCCGUUCGGAUCUGCACUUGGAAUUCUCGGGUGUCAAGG | -1.41 |
| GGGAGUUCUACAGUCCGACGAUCACCAUGCAGCUGGGCAUCUUUGGGAAGUGGGGCAAGGGGGGGAUAGGGAGGGGGGUAACACUUUGGGAACAGGUGGUCCCAGGUCGUUUCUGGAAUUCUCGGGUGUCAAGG | 1.58 |
| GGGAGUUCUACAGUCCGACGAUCCACAGACAACACGCACCCACACAGACACAGAGGGAAGGGGUUGGGAUGGAAACAGGGUGCACAGCAGGGCGGGGUAGGACCCCAGCCCCUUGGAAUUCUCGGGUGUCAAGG | 1.25 |
| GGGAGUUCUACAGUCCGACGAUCCAAGUCCUGUGCUACACAUCGUAUGUACCGAAUCGGGGUUUGGGUUUGGUUUGGGGAAAGUAUUAUGUUACGCCGUUCGGAUCUGCACUUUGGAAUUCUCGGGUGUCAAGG | 0.0921 |

For quick reference, copied from above (block 1):
| Modification | mean fluorescence intensity [a.u.] |
| --- | --- |
| 2'F-ANA at 2 4 8 10 11 13 14 15 | 58.2 |
| 2'F-ANA at 2 8 | 519 |
| 2'F-ANA at 2 6 7 9 11 13 14 15 | 140 |
| 2'F-ANA at 1 2 6 9 12 14 15 | 57.5 |
| 2'F-ANA at 5 7 8 9 14 15 | 48.4 |
| 2'F-ANA at 2 4 5 8 10 11 12 | 48.9 |
| 2'F-ANA at 2 3 4 6 8 10 12 13 | 210 |
| 2'F-ANA at 1 2 3 5 6 7 9 10 11 12 13 15 | 51.7 |
| 2'F-ANA at 2 3 5 8 9 10 11 14 | 119 |
